# Assay results gathered from unrelated publications.
# A part holds a random share of what one study measured. Substitutions count along the parent as printed.

# Study 1 — target: CCNA1, cyclin fold, Cln2 fusion (human); method: yeast growth competition, sequencing; sample: yeast; setting: strong parent motif; baseline: not given; reading: higher = stronger binding
# Parent: E2F1 docking peptide (human); PPVKRRLDFETDH
Variant,normalised enrichment score
D12C,1.84
L7G,-0.411
R5F,-0.0898
E10W,1.15
R6T,1.21
P2M,1.85
K4F,0.633
P2Y,1.85
P2C,1.99
L7T,0.239
K4M,1.17
R5P,-0.243
P2L,1.61
V3I,1.19
F9N,0.273
D8V,1.43

# Study 2 — method: protein binding microarray; form: double-stranded DNA, one strand shown; sample: in vitro; concentration: not given; baseline: not given; reading: higher = stronger binding
# Target: Histone acetyltransferase KAT6A, winged helix 2, GST fusion (KAT6A, Homo sapiens, UniProt Q92794, residues 85-181)
# Setting: 8-mer, flanks averaged, mean of 2 arrays, mostly near background
# Construct (chain): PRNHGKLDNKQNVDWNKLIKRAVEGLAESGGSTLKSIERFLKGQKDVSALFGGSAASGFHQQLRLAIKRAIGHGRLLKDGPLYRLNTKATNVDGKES
Sequence,E-score
GCTCGACA,-0.0306
CGACTGCC,-0.138
CCATTGGG,-0.00103
CGGAGGAG,-0.141
CAGTATCC,-0.123
GTCATCAA,-0.0994
GCATACCC,0.111
TGACTGAA,-0.0538
AGGTATTC,-0.0531
GAAGTATC,0.0565
CAGTCGTC,-0.136
CCACAGAA,0.0139
TATAATGA,0.00492
CAAGAATC,0.0107
AAACGCTT,-0.168
ATAAAAAG,0.0359
TACATCTA,-0.077
ACTTCGAT,0.0394
AAGCATGC,-0.106

# Study 3 — method: DHFR PCA, deep sequencing; sample: yeast; added: (+)-ABA 0.032 µM; baseline: wild-type fitted maximum; reading: higher = stronger binding
# Target: ABI1, truncated, D143A, DHFR fusion (Arabidopsis thaliana)
# Setting: methotrexate growth selection, single substitutions
# Parent: PYL1, truncated, DHFR fusion (Arabidopsis thaliana); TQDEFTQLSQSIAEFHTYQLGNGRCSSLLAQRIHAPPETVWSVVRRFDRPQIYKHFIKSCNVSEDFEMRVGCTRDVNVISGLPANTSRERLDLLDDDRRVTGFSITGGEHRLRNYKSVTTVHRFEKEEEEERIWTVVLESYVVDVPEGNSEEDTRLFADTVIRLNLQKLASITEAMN; partner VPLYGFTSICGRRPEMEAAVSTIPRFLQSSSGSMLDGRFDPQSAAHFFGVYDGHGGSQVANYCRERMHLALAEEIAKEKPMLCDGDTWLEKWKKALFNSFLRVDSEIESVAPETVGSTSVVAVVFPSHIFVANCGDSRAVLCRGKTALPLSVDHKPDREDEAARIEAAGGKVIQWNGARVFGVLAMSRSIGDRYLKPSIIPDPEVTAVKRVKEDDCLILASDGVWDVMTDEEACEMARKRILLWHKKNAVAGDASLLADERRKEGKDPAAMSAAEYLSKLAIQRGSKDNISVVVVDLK
Variant,relative binding score [%]
Y141A,-3.25
H110L,18.6
L93T,7.22
F47R,-2.75
E64F,3.28
S171W,6.52
S42R,12.8
C25K,-6.26
R132Y,13.4
Q10T,25.6
T86I,39.4
G81N,20.1
S80M,40.1
R49F,-2.76
S150R,6.09
R69W,-3.81

# Study 4 — method: universal PBM; form: double-stranded DNA, one strand shown; sample: in vitro; concentration: not given; reading: higher = stronger binding
# Target: Sal-like protein 4, full length isoform B (SALL4, Homo sapiens, UniProt Q9UJQ4-2, residues 1-616)
# Setting: 8-mer, flanks averaged, mean of replicates
Sequence,E-score
GGCGCCCA,-0.184
GTTCCCAA,-0.146
ACAAAATG,0.274
CACGGAGA,-0.196
CGCACACA,-0.0432
TATACCCA,0.122
CAACGAAC,-0.0599
CAAATGAG,0.109
CGTCGTCA,-0.0491
ACAGAGGC,-0.0913
AAATGAAT,0.339
AATCGGCG,-0.227
CAACCCCC,-0.123
CAGCCCGC,-0.384
CAACCAAC,-0.1
CCACAGTC,-0.202
GCGAGGCA,-0.152
CTGCTTAA,-0.0261
GCATTAAA,0.313

# Study 5 — method: RNA Bind-n-Seq; form: RNA; sample: in vitro; concentration: 365 nM; baseline: no-protein control; reading: higher = stronger binding
# Target: RNA binding protein fox-1 homolog 2, RRM domain, GST-SBP tag (RBFOX2, Homo sapiens, UniProt O43251-10, residues 100-194)
# Setting: natural RNA segment, single round, ends assumed
# Constant ends, left off below: GGGAGUUCUACAGUCCGACGAUC … UGGAAUUCUCGGGUGCCAA
# Residues (chain): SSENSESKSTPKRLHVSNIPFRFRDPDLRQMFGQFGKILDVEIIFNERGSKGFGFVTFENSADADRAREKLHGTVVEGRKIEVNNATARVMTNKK
Sequence,RBNS enrichment (R)
AAGUUCUCUCCUGCUGUGGUCAGAGUUGCUUCGAUGUUGGCCAAGUGCUUUUCUUCUUGGGCUCCCUUCUGACCUGCAGGACAGUUUUCCUGGAGCCAUUUGGUAUGAGG,0.533
ACUGUAAACAUACGACCUUUGUUUUUGUCUUAUGUUGGGGUAAAGGAAAGCAGGAAGGGGAAUUUUUAUCCUCCUCCCUUCCGUAAAGUGCUGGGAUAUUUUGAAUCCCC,0.277
GGUCAUCACUUCUGUUCUAUGUUAUUAUCUAGGACUCAACGAGUCAUCUCAAACCAUAUUCUGUGAAUCCAUCUCAUGGUCCACUCCUGGGCUGCGGAAGGUACAAGGCG,0.273
ACUUUGAAUGUGAUGAAAUGACACGUUUGGCUGCAUUUGGAUGGUGUCUUAGAACCCUCAUUGCUCAGACCUGAAGGCUACUUCUAGGAGCAUGAAGUUUGAGUUUUGUG,1.17
UGACUGACGGCCCCUUGUGCAAGCUCAUUCUUCAGUGGAUCCUUCAGUGGAGUGGUGACACGUGCCAGCGGUCACUCUGCCACAUCACUUCCUUCUUGAAAGCCUAAGAG,0.414
ACCUGAUGCCAGAUUUUUUUCAUAAAUAUUCUGCCUACUGUAAAUAUGGGUUCCUCUGAGUUGUUUUAGAAAAUUAGCGCAAUGUAUUAAAAUCAAGUGUUAGGAAAUUU,0.538
ACGGGGCAUAUUUAAGGGGGCAUCUUUGUGUAAAAGAUGCAUGGAGUCAGGAGAAAACCACCUUCAUAAACUGCUCUGUGCAAAGAGGAAUAAAACAUUUUUUCCAAACU,0.296
GUUAUUUUGGACAACAUAAAAUUCAGGAAUGUUUUAUUUAGCCUUGGUUUCUAGAAGGAAGGGAAAUAAUAUUUCUUGAGCAUUUACUAGGGUGUUGCGUGCUGUGCUAA,1.62
AGAGUGCCAACCAAGCCUUCCUGGGCUUUACAUAUGUGGCACCUUCUGUCCUGGACAGCAUCAAAGAGGGCUUCUCCUUCCAGCCCAAGCUGCGUUCUCCCAGACGCCUU,0.943
UCCCAGGAAGCAGGGAGAGUUGGGGAAGGCAAGAUUGGAAAGACAGGAAGACCAAGGCCUCGGCAGAACUCUCUGUCUUCUCUCCACUUCUGGUCCCCUGUGGUGAUGUG,0.459
CACAAAACACUAGUGAAGCCUGCUGAACUAAUUCUGCCUCUGGAAAUCUUUUCUGGUUCUUUACAGUUUGUUGUUUUGUUUUGAUCCAAGCUUAGUUUGUUACUAUGUGU,2.39
CAACUUUUUUGAUAUUUACUAGAAAUGAUGCAAUAUAUCCUUUCUGAGAUAUUUACAGUAUUAUUAAAGGGUUGGGCUGUUUUGCAUAACAAACUUUUUAUUGGCAUACC,0.334

# Study 6 — method: EMSA with sequencing; form: double-stranded DNA, one strand shown; sample: in vitro; concentration: 10 and 20 nM; baseline: negative control set to 0; reading: higher = stronger binding
# Target: Hepatocyte nuclear factor 3-alpha (Foxa1, Mus musculus, UniProt P35582, residues 1-468, full length assumed)
# Setting: whole designed probe, mean of two concentrations, ends assumed
# Constant ends, left off below: GTGAGCGGTGCCCATTGATGGGGAAC … TTTCACTGGGATCGTGGGGAC
# Target sequence (chain): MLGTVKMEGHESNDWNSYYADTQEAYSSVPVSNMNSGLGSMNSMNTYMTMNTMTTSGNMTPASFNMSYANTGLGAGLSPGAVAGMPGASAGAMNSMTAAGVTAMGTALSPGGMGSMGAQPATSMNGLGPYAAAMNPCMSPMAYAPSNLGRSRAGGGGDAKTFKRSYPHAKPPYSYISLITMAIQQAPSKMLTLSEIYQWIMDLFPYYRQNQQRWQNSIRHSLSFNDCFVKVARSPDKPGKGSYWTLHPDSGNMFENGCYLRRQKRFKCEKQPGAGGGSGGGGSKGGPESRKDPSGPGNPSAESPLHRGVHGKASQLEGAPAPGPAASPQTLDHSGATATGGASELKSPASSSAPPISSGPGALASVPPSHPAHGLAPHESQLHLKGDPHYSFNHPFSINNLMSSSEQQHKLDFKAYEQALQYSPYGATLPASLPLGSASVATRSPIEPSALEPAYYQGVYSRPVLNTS
Sequence,normalised bound fraction [ratio]
ATCTTCCCCCTCTTCCTTGCCCCACCAGCTCACCTTCCCGGGTTATTTGCAGATAGGAAAATAAAATGCAGCAGCATTCGTTAACCCTCTTCTGGCGCAAACTGCTGTTTGCTCTGGATGAATCATGGTCCTTTGGCGACGCCAGGCTCCGGGAGAGCAAAGCACCGTGTCAGGGCCATGATCCGGGGTGGCC,0.145
AGGTGAATTGGCTGCTTCCATCCTGGCTTGGAACTTCAGACATAGAAGCCTTGGGACTTTCTCAGGACTTTCTCCAGATCTGTCACATGCTCAGCAAACAAGCATCTCTGTGGATCACGTGACCCTGACTCATGCTGTTGGTGAAACTGTGTGTTGGTCTAGGTACCTAGCCCATGCTAGGTGCTCATCGAAT,0.0961
AGGTGAAGTCGGCACCCTTGTCTTTGAGCTCACACAGGTGGCTGAGCTAAATAAGTGCTGAAAGGAGCTGGGTGCACTCTCCTGAGTGTCCTTTGTTGACTCTGGAAGCACTGTAAACTTGGCATCAGAAGGAGATTATAAAGTGCTTTTGTTCCTAAGCTTTATAAAGTGTGTGTGTATGCATGTGGGTTTC,0.19
ATAATCATTAACTATGGGCTTTTTAAAAAGAATTTTTTCTTTACTTTGCTATTCTTTTCTTTTCTTTCTCATTCTTTTCTTTCCATTTTCAAAGTCATTTAAAGGACCAAGAGAAAATTTCCCATGAAAAATACATGTTTTTATTCTTTAGTTCAATTCTGCTCCTAAAATGTATAAAAGCCAATAGGATTCA,0.0409
GAATCATGCACAATTGTACCAGGCAGCCCCGAGCCAAGCCCTTTTATGACTTCCTTCCTTTCCACATATTGCTTCCCCTGCCACAACTGCCCTAGATTGCCTTTCCTCCCCCCATTTCTTTATATGGTGCAACATCTAACACTTAGTTCTCAAATTCTGCCCAAATATAATCCTGGTGAACACAAACATAACA,-0.0175
GTGGTGTCCTGTGAGTCGTGGGAACTAGTCATTCCTTCCCAGTGAGAAAGTTAGGATTTATTTGAACAGACATACTCATACGAAACCTTTCTTATTTGCCCAGACATGGGTCAACATTGCTCCAGAAAAGAGTGGCTGGTGTAACGTTTCCATGATCCTTGATGCCATGATGAAAAAGCACTTGGTGAGTGTG,0.236
CCCATGTTAAGAGGCCAGGCAGACAGACCTAGGGCTGGATCTGCAGATAAGTCATCTACACTGGACCCTTGGCTTTGCTTTTAATTGGTTCAATATTTGCACAGAGTCAACTCACCTGCGCCTTACCTACTCAATAACAAGCTTTCTCTCAGTCACCCAGAAGAAACTGCAAAGAAAAGCAAATTGTTTCAGG,0.348

# Study 7 — method: RNAcompete; form: RNA; sample: in vitro; concentration: 20 nM; setting: 7-mer, probes averaged, single round; baseline: mean of 7-mers; reading: higher = stronger binding
# Target: PABPC1L2, full length, GST fusion (mouse, UniProt A0ABA7IW68)
# Target sequence (chain): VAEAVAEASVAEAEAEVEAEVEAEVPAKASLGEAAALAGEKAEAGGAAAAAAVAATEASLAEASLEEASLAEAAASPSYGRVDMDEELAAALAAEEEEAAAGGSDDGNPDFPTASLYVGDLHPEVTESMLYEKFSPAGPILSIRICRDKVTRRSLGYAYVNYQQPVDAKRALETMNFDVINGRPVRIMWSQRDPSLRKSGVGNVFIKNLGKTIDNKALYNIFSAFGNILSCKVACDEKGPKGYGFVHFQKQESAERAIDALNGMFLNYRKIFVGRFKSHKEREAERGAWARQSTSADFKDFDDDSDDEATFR
Sequence,7-mer Z-score
AGUUCCC,-0.264
GAAUCCA,-0.0953
CGGUCAG,-0.108
UUCCGUU,-0.456
CCUGGCU,-0.246
CGAGAUC,-0.213
AAGUCCA,-0.0301
UCAAGAA,0.234
AUUUUCU,-0.213
UGGGAGU,-0.0627
CUGUCCU,-0.313
AAUCACA,0.184
UCCAUGG,-0.104
